Measurements gathered from unrelated publications.
Numbered parts are unrelated; each lists some results of a single study. Changes are numbered by the printed parent chain.

Study 1
Target: RNA binding protein fox-1 homolog 2, RRM domain, GST-SBP tag (RBFOX2, Homo sapiens, UniProt O43251-10, residues 100-194)
Method: RNA Bind-n-Seq
Form: RNA
Medium: in vitro
Concentration: 365 nM
Notes: natural RNA segment, single round, ends assumed
Reference: no-protein control
Reading: higher = stronger binding
Target sequence (chain): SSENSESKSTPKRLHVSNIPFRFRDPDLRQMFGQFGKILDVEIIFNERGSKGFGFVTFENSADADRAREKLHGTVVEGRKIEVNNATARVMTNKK
`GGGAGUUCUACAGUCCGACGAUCGGCAGCUGUGAGAACCCGGCUCGUUCCGACCUGCGGAUAGUCAAGCGAUCAGAGUAUGUCUUGUGUGUGAGAGUGAGCCUUACAAUCAUGUCCACUGAAGCCACUGGCAGUGGAAUUCUCGGGUGCCAA` — result for “RBNS enrichment (R)”: 0.868.
Under “RBNS enrichment (R)”, `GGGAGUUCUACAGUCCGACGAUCAUUAAUGAAAAAUGACAAAGCAGUGUACUGAUAAGCCAAGGUGCUUUUGAUCUGUAAUUUCUUCUCUAAAACUGCUGCAUCUGGUACAGUAGACUGUGGAAGGUGUUGAUUGGAAUUCUCGGGUGCCAA` is recorded as 0.355.
For `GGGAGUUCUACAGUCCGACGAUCACAUGUUGGUUUCACUCACCCAGAGUAAUUUUGUGAGCAUGCAUGUGCUUUUUAAUUUCUGCUUGAAUGUUUGUCCUGCUGUGUUGCAGCUUCUAAAGACAUUGUCACCGUGGAAUUCUCGGGUGCCAA`, “RBNS enrichment (R)” read 4.57.
Under “RBNS enrichment (R)”, `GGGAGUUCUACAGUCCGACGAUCAGGCCUCCCACAGGUGUCCCGGCAAGAGAAGACACGGUGGUGGAAGAAGAGGCCUGGUAAUGGCCCCUCCUCCUGGGACCCCUUCGUCCUCUCCUUACCCCACCUCCUGGUGGAAUUCUCGGGUGCCAA` is recorded as 0.197.
`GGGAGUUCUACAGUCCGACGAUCAAGGUUGAAAUUUAGCCCAGCUCUAGGCAUUUUACAAAUUAUUUUAAGAACAGUCACUCUUGAUUGUUUUACUUUUUAUUUUUAAAUUAAAGAUUGGGAAUGCGUGUGAGUGGAAUUCUCGGGUGCCAA` — result for “RBNS enrichment (R)”: 0.701.
Under “RBNS enrichment (R)”, `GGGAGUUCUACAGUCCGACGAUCUAACCCAAACUCAGUGCAUUUUUUAAAAAUAGUUAAAAAUACAGGACAAGAACACUUGAACACACAGAACGGAGACUAUGCCUAGUGUAGGUUUUGCAGUUAAUGGCCUGUGGAAUUCUCGGGUGCCAA` is recorded as 0.744.
Under “RBNS enrichment (R)”, `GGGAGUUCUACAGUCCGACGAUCCUGGGUUCCGCCCGGUCUCCACCCUCCCUCCGCCUCCCUUGGUUAGUUUCACAGUGCUGGCAAUGAAGCCCGUGGCCCACCACGCUAGGCGAGUGCUCUGCCACUGAGUCUGGAAUUCUCGGGUGCCAA` is recorded as 0.284.
`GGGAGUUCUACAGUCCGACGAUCCUUCUUCCUAACAGCAUUUUAUGCCUUUUAUUCCACAUUAAAUGGGAAUUGUGCCUACUUAGGAGUGCCCCUCCAAUUAAUUACAUGUGUCCAAGAAUAAUCCAAGCUAGUGGAAUUCUCGGGUGCCAA`: “RBNS enrichment (R)” 0.904.
`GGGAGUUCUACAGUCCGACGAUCUGGGUCCCUUGUACAUAACUCCUUGUGACAAAACCCUCUGGAAGUUCUGGACCCCAUUUUUGAUAGGCUUUUUUGUCUUGUCCUCUACUCAUGCUGUCUUGGACUCACUGUGGAAUUCUCGGGUGCCAA` — result for “RBNS enrichment (R)”: 0.667.
For `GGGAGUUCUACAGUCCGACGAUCCAGUACCAGAGCAAUCCAGAUGCUGCUGUGCAGUGACGUGGCCUGCGGCCGGGCUGCCUAUUGCUGCCAGGAUACCUGCCCCAGCGCGGCUCGGCCGCCACCCAGGACGCUGGAAUUCUCGGGUGCCAA`, “RBNS enrichment (R)” read 0.258.
For `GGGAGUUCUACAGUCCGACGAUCUGCAGCCGUAGCAGCAUCCAUCUCCAGCAAGUCUCCUGGCCUCUCCUCGUCUUCUUCAUCCUCAUCAUCCUCCACGUGCAGUGAUGUGGCAGCACAGACCCCUGGAGGCCUGGAAUUCUCGGGUGCCAA`, “RBNS enrichment (R)” read 0.587.
For `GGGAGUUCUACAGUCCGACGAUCAAAUGCACUUAAAUGAAAACAGUUAUUACAAAAGUUAAGAUUUAAAAAAAAGAAAAAGCAAGAGUUUUUAUUAUGAUGUAAUACCGGUAGAAUAUUGAAUAUUUAAAAGGUGGAAUUCUCGGGUGCCAA`, “RBNS enrichment (R)” read 0.914.

Study 2
Target: Sal-like protein 4, full length isoform B (SALL4, Homo sapiens, UniProt Q9UJQ4-2, residues 1-616)
Method: universal PBM
Form: double-stranded DNA, one strand shown
Medium: in vitro
Concentration: not given
Notes: 8-mer, flanks averaged, mean of replicates
Reading: higher = stronger binding
Construct (chain): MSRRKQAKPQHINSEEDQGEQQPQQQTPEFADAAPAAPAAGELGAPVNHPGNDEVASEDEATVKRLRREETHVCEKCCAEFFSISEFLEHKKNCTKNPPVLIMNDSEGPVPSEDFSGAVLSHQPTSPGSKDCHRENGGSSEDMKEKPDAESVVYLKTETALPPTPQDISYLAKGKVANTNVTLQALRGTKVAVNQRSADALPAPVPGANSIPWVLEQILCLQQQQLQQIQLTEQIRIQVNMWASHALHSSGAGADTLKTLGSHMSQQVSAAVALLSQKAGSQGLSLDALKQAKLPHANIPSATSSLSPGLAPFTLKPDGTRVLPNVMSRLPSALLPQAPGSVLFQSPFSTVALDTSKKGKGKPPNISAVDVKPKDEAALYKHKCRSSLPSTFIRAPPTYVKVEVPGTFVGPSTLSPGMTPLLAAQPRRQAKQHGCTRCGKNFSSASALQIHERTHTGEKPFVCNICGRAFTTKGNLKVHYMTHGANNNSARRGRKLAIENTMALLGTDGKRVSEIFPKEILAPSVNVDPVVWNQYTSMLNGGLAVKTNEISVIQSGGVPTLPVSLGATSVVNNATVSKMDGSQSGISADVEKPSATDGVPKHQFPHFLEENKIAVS
For `CACGTCCC`, the E-score was -0.177.
For `AAGATATG`, the E-score was 0.293.
With `CAGGGAAC` the E-score was -0.0825.
For `CCGTTAAA`, the E-score was 0.0141.
The E-score of `ATACTCAG` is reported as 0.0877.
With `GGCTAGAC` the E-score was -0.134.
`ACGGATAT` has an E-score of 0.194.
The E-score of `GCATAAGC` is reported as 0.0859.
The E-score of `CGACCTCG` is reported as -0.194.
The E-score of `ATTCGATA` is reported as 0.263.
`GGACTCCC` gave an E-score of -0.33.
For `GCACTTAA`, the E-score was 0.202.
For `AAACTACA`, the E-score was 0.12.
For `CCACCCTA`, the E-score was -0.0871.
With `GCTCGGAA` the E-score was -0.242.
`CCGCATAA` gave an E-score of 0.206.
For `CGACATCG`, the E-score was -0.123.
With `CCGAAGCA` the E-score was -0.00519.
`ACCCTGGC` has an E-score of -0.315.
With `TAACTTGA` the E-score was 0.247.
For `AACCACTA`, the E-score was 0.117.
With `CCTAAGGC` the E-score was -0.294.
`TGAGCTCA` has an E-score of -0.246.
With `CAGGTACA` the E-score was -0.0276.
For `GATTTACA`, the E-score was 0.242.

Study 3
Target: Ras GTPase-activating protein-binding protein 1, C-terminal RGG region (G3BP1, Homo sapiens, UniProt Q13283)
Chain of UniProt Q13283 (whole entry, looked up): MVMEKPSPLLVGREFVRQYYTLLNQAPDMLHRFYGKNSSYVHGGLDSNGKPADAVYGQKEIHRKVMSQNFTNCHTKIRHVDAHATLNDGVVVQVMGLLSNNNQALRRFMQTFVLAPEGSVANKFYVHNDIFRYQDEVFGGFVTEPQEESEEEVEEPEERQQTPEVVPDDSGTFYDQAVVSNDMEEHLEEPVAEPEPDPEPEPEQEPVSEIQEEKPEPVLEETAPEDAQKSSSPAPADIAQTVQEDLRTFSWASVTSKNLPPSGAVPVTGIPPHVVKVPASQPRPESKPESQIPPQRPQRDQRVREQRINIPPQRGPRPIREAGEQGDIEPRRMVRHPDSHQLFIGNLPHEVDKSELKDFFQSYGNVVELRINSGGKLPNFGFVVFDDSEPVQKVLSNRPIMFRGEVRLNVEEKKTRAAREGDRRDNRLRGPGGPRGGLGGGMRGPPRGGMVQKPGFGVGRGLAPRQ
Method: RNA Bind-n-Seq
Form: RNA
Medium: in vitro
Concentration: 1 µM
Notes: whole 134-nt RNA, ends assumed
Added: 150 mM KCl
Reference: input library
Reading: higher = stronger binding
The log2 enrichment of `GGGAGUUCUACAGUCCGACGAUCUGGCCCUGGUGGCAUGCGGGGAGGAAGAGGUGGCCUCAUGGAUCGUGGUGGUCCCGGUGGAAAGUUCAGAGGUGGCCGUGGUGGAGACAGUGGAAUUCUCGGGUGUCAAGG` is reported as 1.59.
`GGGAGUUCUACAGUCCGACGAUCACCAUGCAGGUGGGCAUCUUUGGGAAGUGGGGCAAGGGGGGGACAGGGAGGGGGGUAACACUUUGGGAACAGGUGGUCCCAGGUCGUUUCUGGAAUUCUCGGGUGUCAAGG` has a log2 enrichment of 2.4.
For `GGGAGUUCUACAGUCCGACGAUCACCAUGCAGGUGGGCAUCUUUGGGAAGUGGGGCAAGGGGGGGAUAGGGAGGGGGGUAACUCUUUGGGAACAGGUGGUCCCAGGUCGUUUCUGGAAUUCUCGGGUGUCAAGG`, the log2 enrichment was 2.31.
With `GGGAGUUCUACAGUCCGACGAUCCAAGUCCUGUGCUACACAUCGUAUGUACCGAAUCGGGUGGGUGGGAAAAAAAGGGAAAGUAUUAUGUUACGCCGUUCGGAUCUGCACUUCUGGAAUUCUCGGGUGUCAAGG` the log2 enrichment was 0.218.
For `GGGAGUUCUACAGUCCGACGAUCUCCUCAAGUCCUGUGCUACACAUCGUAUGUACCGAAUCGGGGUGGUGGGUGGAAAGUAUUAUGUUACGCCGUUCGGAUCUGCACUUCCAGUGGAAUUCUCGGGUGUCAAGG`, the log2 enrichment was 0.258.
`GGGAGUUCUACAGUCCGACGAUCCACAGGCAACACGCACCCACACAGACACAGAGGGAAGGGGUUGGGAUGGGGACAGGGUGCACAGCAGGGCGGGGUAGGACCCCAGCCCCUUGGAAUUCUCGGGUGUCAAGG` has a log2 enrichment of -0.42.
For `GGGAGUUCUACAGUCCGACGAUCUGGGAGGUGGAUUUUGUUUAUUAUUUUAGCUCAUUUCCAGGGGUGGGAAUUUUUUUUUAAUAUGUGUCAUGAAUAAAGUUGUUUUUGAAAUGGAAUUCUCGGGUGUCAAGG`, the log2 enrichment was 2.89.
With `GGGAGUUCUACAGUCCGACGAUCUGUGCUACACAUCGUAUGUACCGAAUCGGGGCCCCCCCGGGGCCCCCCCGGGGCCCCCCCGGAAAGUAUUAUGUUACGCCGUUCGGAUCUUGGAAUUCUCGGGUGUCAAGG` the log2 enrichment was -2.26.
`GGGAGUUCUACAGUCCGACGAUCCAAGUCCUGUGCUACACAUCGUAUGUACCGAAUCGGGGAAGGGAAGGGGAAGGGGAAAGUAUUAUGUUACGCCGUUCGGAUCUGCACUUCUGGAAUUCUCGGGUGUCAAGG` gave a log2 enrichment of 2.85.
For `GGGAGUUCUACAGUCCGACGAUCGCAGGAAGUAAAAACAAAUGGAAAUGCUUCGGAUAGUGGCAGGGGUGGGGGUUGCUAAGGAAAGGGUGGGAUGGGGGUGGGUAAAGAGUUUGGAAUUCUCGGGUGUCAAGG`, the log2 enrichment was 1.33.

Study 4
Target: CCND3, cyclin fold, Cln2 fusion (human)
Method: yeast growth competition, sequencing
Medium: yeast
Notes: weak parent motif
Reference: not given
Reading: higher = stronger binding
Starting sequence: MICAL3 docking peptide (human); LQLRRQLSFSEDS; partner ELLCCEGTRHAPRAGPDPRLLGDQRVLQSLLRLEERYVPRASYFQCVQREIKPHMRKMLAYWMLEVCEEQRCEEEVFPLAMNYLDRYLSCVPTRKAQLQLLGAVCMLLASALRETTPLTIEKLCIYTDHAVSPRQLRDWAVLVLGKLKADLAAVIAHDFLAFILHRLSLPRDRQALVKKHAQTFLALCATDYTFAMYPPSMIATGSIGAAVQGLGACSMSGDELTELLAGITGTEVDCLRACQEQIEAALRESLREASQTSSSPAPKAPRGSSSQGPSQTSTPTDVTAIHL
`Q6W`: “normalised enrichment score” -0.179.
For `R4N`, “normalised enrichment score” read -0.0846.
Under “normalised enrichment score”, `Q2H` is recorded as 0.18.
`L3G` — result for “normalised enrichment score”: 0.375.
`Q2T` — result for “normalised enrichment score”: -0.241.
Under “normalised enrichment score”, `Q6K` is recorded as -0.202.
`R4Q` — result for “normalised enrichment score”: -0.178.
`S10M`: “normalised enrichment score” 0.179.
`Q2L` — result for “normalised enrichment score”: 0.424.
`R4I`: “normalised enrichment score” 0.301.
`E11I`: “normalised enrichment score” -0.442.
Under “normalised enrichment score”, `Q2P` is recorded as 0.145.
Under “normalised enrichment score”, `L3C` is recorded as 0.0936.
`L3A`: “normalised enrichment score” 0.384.
`S8G` — result for “normalised enrichment score”: 0.0483.
`S8F` — result for “normalised enrichment score”: 0.601.
Under “normalised enrichment score”, `S8A` is recorded as 0.0724.
Under “normalised enrichment score”, `E11D` is recorded as -0.188.
`D12Y` — result for “normalised enrichment score”: 0.0753.
`E11T`: “normalised enrichment score” 0.235.
`R5I`: “normalised enrichment score” 0.14.
`Q6N`: “normalised enrichment score” 0.00823.
Under “normalised enrichment score”, `S10A` is recorded as -0.151.
`F9R`: “normalised enrichment score” 0.169.
`D12T` — result for “normalised enrichment score”: 0.135.

A few entries again (study 4):
For `R4N`, “normalised enrichment score” read -0.0846.
Under “normalised enrichment score”, `Q2H` is recorded as 0.18.
`L3G` — result for “normalised enrichment score”: 0.375.
`Q2T` — result for “normalised enrichment score”: -0.241.
Under “normalised enrichment score”, `Q6K` is recorded as -0.202.
`R4Q` — result for “normalised enrichment score”: -0.178.
`S10M`: “normalised enrichment score” 0.179.
`Q2L` — result for “normalised enrichment score”: 0.424.
`R4I`: “normalised enrichment score” 0.301.
`E11I`: “normalised enrichment score” -0.442.
